{"data": "Measurements gathered from unrelated publications", "note": "Each line is one published result; not all experiments were run side by side."}
{"SMILES": "CC(C)[C@]12O[C@H]1[C@@H]1O[C@]13[C@]1(O[C@H]1C[C@H]1c4c(C(=O)c5ccccc5)oc(OC(=O)c5ccccc5)c4CC[C@@]13C)[C@@H]2O", "tested on": "AML patient cells", "test": "apoptosis, Annexin V flow cytometry", "conditions": "24 h", "quantity": "EC50", "value": "0.0406 µM"}
{"SMILES": "CCCCCc1cc(O)c2c(c1)OC(C)(C)C1CCC(C)=CC21 (stereo not drawn)", "system": "rabbit, α-chymotrypsin-induced glaucoma", "conditions": "topical, 50 µL of 0.5% w/v, 30 min", "quantity": "IOP relative to baseline", "value": "66%"}
{"SMILES": "Nc1ccc(/C=C/C(=O)N2CCc3c(oc4c(-c5ccc(F)cc5)cc(-c5ccc(C(=O)N6CCC(F)(F)CC6)cn5)cc34)C2)cn1", "tested on": "MIA PaCa-2", "test": "western blot, item: c-Myc", "conditions": "0.05 to 5 µM, 72 h", "quantity": "protein level", "value": "decreased"}
{"SMILES": "CC(/C=C/C(O)=C1/C(=O)CNC1=O)=C\\[C@@H](C)[C@H]1O[C@@]2(C)O[C@H](C(=O)[C@@H]3O[C@@]32CO)[C@@H]1C", "tested on": "Enterococcus", "system": "vancomycin-resistant", "quantity": "MIC", "value": "12.5 µM"}
{"SMILES": "CC(=C(c1ccc(Cl)cc1)c1ccc(OCCCN(C)C)cc1)c1ccc(Cl)cc1", "tested on": "influenza A virus H1N1", "test": "cytopathic effect, visual CPE", "system": "MDCK", "quantity": "EC50", "value": "3.2 µg/mL"}
{"SMILES": "Cc1ccc2nc(C)c(C(=O)NCc3cccs3)n2c1", "tested on": "Moraxella catarrhalis", "test": "microbial growth, broth dilution", "system": "1502", "quantity": "MIC", "value": "> 64 µM"}
{"SMILES": "CC[C@H](C)[C@H](NC(=O)[C@@H](NC(=O)[C@H](CC(=O)O)NC(C)=O)[C@@H](C)O)C(=O)N[C@@H](CCCNC(=N)N)C(=O)N[C@@H](CC(C)C)C(=O)N[C@@H](CC(C)C)C(=O)N[C@@H](Cc1ccccc1)C(=O)N[C@@H](CCC(N)=O)C(=O)N[C@@H](CC(C)C)C(=O)N[C@@H](CCSC)C(=O)N[C@@H](CCCNC(=N)N)C(=O)N1CCC[C@H]1C(=O)N1CCC[C@H]1C(=O)N[C@@H](CC(N)=O)C(=O)N[C@@H](CCSC)C(=O)N[C@H](C(=O)N1CCC[C@H]1C(=O)N[C@@H](C)C(=O)N[C@H](C(=O)N[C@@H](CC(N)=O)C(=O)N[C@@H](C)C(N)=O)C(C)C)[C@@H](C)O", "test": "item: HA-51 tetramer", "system": "antigen-experienced tetramer+ CD4 T cells, healthy adults, HLA-DRB1*0101", "conditions": "dose not given", "quantity": "α4β7− CCR9− cells", "value": "5.88%"}
{"SMILES": "CC[C@@H]1CN2CC[C@@]3(O)C(=Nc4cccc(OC)c43)[C@@H]2C[C@@H]1/C(=C\\OC)C(=O)OC", "tested on": "rabbit anti-mitragynine polyclonal antibody", "test": "antigen binding, competitor, competitive indirect ELISA", "conditions": "0.001 to 50.0 µg/mL", "quantity": "IC50", "value": "0.971 µg/mL"}
{"SMILES": "O=C(O)CC[C@H](NC(=O)N[C@@H](CCCCNC(=O)[C@H](Cc1ccc2ccccc2c1)NC(=O)[C@H]1CC[C@H](CNC(=O)CN2CCN(CC(=O)O)CCN(C(CCC(=O)NCCC[P+](c3ccccc3)(c3ccccc3)c3ccccc3)C(=O)O)CCN(CC(=O)O)CC2)CC1)C(=O)O)C(=O)O (stereo partly drawn) [terbium-161 labelled]", "tested on": "LNCaP (PSMA+)", "conditions": "concentration not given", "how to read": "relative to: cell-associated", "quantity": "internalized activity", "value": "56.3%"}
{"SMILES": "CC[C@H](C)[C@@H]1NC(=O)[C@H](CCCCN)NC(=O)[C@H](CCCCN)NC(=O)[C@H](C)NC(=O)[C@H](C(C)C)NC(=O)[C@H](C)NC(=O)[C@H](CC(C)C)NC(=O)[C@H](CC(C)C)NC(=O)[C@H](C)NC(=O)[C@H](CCCCN)NC(=O)[C@H](CC(C)C)NC(=O)[C@H](CC(N)=O)NC(=O)[C@H](CC(C)C)NC(=O)[C@@H](N)CSSC[C@@H](C(N)=O)NC(=O)[C@H](CC(C)C)NC1=O", "tested on": "MDA-MB-435S", "test": "MTT", "conditions": "24 h", "quantity": "IC50", "value": "13.9 µM"}
{"SMILES": "C[C@@](O)(C(F)F)[C@H](NC(=O)c1ccc(C#CC#CC2CC2)cc1)C(=O)NO", "tested on": "Stenotrophomonas maltophilia", "test": "agar dilution", "system": "clinical isolates", "quantity": "MIC90", "value": "1 µg/mL"}
{"SMILES": "COc1ccc2cc1Oc1ccc(cc1)C[C@H]1c3cc(c(OC)cc3CC[N+]1(C)Cc1ccc3ccccc3c1)Oc1c(OC)c(OC)cc3c1[C@H](C2)[N+](C)(Cc1ccc2ccccc2c1)CC3 (mixture of isomers)", "tested on": "mixed-sequence 12-bp dsDNA", "test": "DNA binding, ethidium bromide displacement", "system": "phosphate buffer, 10% DMSO", "conditions": "pH 7.2, 25 °C, dsDNA 10 µM, 10 mM NaCl, with: ethidium bromide 5 µM", "quantity": "Stern-Volmer constant", "value": "16900 M⁻¹"}
{"SMILES": "CN(C)CCc1c[nH]c2ccc(F)cc12", "system": "mouse, prefrontal cortex", "conditions": "intraperitoneal, 10 mg/kg, 30 min", "quantity": "Egr1 mRNA level", "value": "increased"}
{"SMILES": "CC[C@H]1OC(=O)[C@H](C(C)C)NC(=O)[C@H](C)OC(=O)[C@@H](C(C)C)NC(=O)[C@@H](C(C)C)OC(=O)[C@H](C(C)C)NC(=O)[C@H](C)OC(=O)[C@@H](C(C)C)NC(=O)[C@@H](C(C)C)OC(=O)[C@H](C(C)C)NC(=O)[C@H](C)OC(=O)[C@@H](C(C)C)NC1=O", "tested on": "U-87 MG", "test": "cell growth, SRB", "how to read": "relative to: IC50 in HA over IC50 in U-87 MG", "quantity": "selectivity ratio", "value": 23}
{"SMILES": "CC[C@H](C)[C@H](NC(=O)[C@H](CCCNC(=N)N)NC(=O)[C@H](CCC(N)=O)NC(=O)[C@H](CC(=O)O)NC(=O)[C@H](CC(C)C)NC(=O)[C@H](CC(C)C)NC(=O)[C@H](CC(N)=O)NC(=O)[C@H](Cc1ccccc1)NC(=O)[C@H](CC(=O)O)NC(=O)[C@@H](NC(=O)[C@@H](NC(=O)[C@H](CC(N)=O)NC(=O)CNC(=O)[C@H](CO)NC(C)=O)C(C)C)[C@@H](C)CC)C(=O)N[C@H](C(=O)N[C@@H](Cc1c[nH]c2ccccc12)C(=O)N[C@@H](CCC(N)=O)C(=O)N[C@@H](CC(N)=O)C(=O)N[C@@H](Cc1c[nH]c2ccccc12)C(=O)N[C@@H](Cc1ccc(O)cc1)C(=O)N[C@@H](C)C(N)=O)[C@@H](C)CC", "test": "item: HA-52 tetramer", "system": "antigen-experienced tetramer+ CD4 T cells, healthy adults, HLA-DRB1*0101", "conditions": "dose not given", "quantity": "α4β7+ CCR9− cells", "value": "55.6%"}
{"SMILES": "CC[S+]([O-])C1C(CO)OC(OC2C(N)CC(N)C(O)C2OC2OC(CO)C(OC3OC(CN)C(O)C(O)C3N)C2O)C(N)C1O (mixture of isomers)", "tested on": "bacterial hybrid ribosome, human cytoplasmic A site", "test": "cell-free translation, inhibitor", "quantity": "IC50", "value": "123 µg/mL"}
{"SMILES": "CC(C)C[C@H](NC(=O)[C@H](CCCNC(=N)N)NC(=O)[C@H](CO)NC(=O)[C@H](Cc1c[nH]cn1)NC(=O)[C@H](CCCNC(=N)N)NC(=O)[C@@H]1CCCN1C(=O)[C@H](CCCNC(=N)N)NC(=O)[C@H](Cc1c[nH]cn1)NC(=O)[C@@H]1CCCN1C(=O)[C@H](CO)NC(=O)[C@H](CC(C)C)NC(=O)[C@H](CO)NC(=O)[C@H](CCCNC(=N)N)NC(=O)[C@H](CCCCN)NC(=O)[C@@H](NC(=O)[C@@H](NC(=O)CNC(=O)[C@H](CCCNC(=N)N)NC(=O)[C@H](Cc1c[nH]cn1)NC(=O)[C@H](Cc1c[nH]c2ccccc12)NC(=O)[C@H](Cc1ccccc1)NC(=O)[C@H](Cc1c[nH]cn1)NC(=O)[C@H](Cc1ccc(O)cc1)NC(=O)[C@@H](N)Cc1ccc(O)cc1)C(C)C)[C@@H](C)O)C(=O)N[C@@H](CCC(N)=O)C(=O)N[C@@H](CCCNC(=N)N)C(=O)O", "tested on": "LPS, Escherichia coli 0111:B4", "test": "isothermal titration calorimetry", "conditions": "pH 7, 37 °C", "quantity": "Kd", "value": "6.98 µM"}
{"SMILES": "CC/C=C\\C/C=C\\C/C=C\\C/C=C\\C/C=C\\C/C=C\\CCC(=O)Nc1ccn(C2OC(CO)C(O)C2(F)F)c(=O)n1 (stereo not drawn)", "tested on": "MALME-3M", "test": "NCI-60 screen", "quantity": "CC50", "value": "51.6 µM"}
{"note": "Some of these lines once more:"}
{"SMILES": "O=C(O)CC[C@H](NC(=O)N[C@@H](CCCCNC(=O)[C@H](Cc1ccc2ccccc2c1)NC(=O)[C@H]1CC[C@H](CNC(=O)CN2CCN(CC(=O)O)CCN(C(CCC(=O)NCCC[P+](c3ccccc3)(c3ccccc3)c3ccccc3)C(=O)O)CCN(CC(=O)O)CC2)CC1)C(=O)O)C(=O)O (stereo partly drawn) [terbium-161 labelled]", "tested on": "LNCaP (PSMA+)", "conditions": "concentration not given", "how to read": "relative to: cell-associated", "quantity": "internalized activity", "value": "56.3%"}
